Measurements from different studies.
Lines come from different studies, so protocols differ. ± gives the spread as reported.
UniProt Q05513, sequence (whole entry, looked up): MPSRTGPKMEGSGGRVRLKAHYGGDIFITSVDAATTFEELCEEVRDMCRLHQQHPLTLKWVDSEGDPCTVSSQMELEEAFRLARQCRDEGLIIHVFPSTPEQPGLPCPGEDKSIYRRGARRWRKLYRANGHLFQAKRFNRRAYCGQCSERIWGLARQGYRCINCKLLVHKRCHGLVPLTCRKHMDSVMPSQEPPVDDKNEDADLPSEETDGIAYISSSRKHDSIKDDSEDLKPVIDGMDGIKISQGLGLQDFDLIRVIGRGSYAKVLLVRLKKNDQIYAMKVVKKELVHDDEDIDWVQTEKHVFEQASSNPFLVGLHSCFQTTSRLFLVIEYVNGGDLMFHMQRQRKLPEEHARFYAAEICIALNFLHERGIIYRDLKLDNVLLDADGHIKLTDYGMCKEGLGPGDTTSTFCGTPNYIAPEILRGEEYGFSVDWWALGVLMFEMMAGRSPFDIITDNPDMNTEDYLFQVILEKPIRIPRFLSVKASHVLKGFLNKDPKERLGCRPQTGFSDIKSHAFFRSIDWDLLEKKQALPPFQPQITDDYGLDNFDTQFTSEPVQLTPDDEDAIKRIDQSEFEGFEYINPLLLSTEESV

O=C(NCc1ccc(C(F)(F)F)cc1)c1cn(Cc2ccc(F)cc2)c2ccc(Oc3ccccc3)cc2c1=O  CC50 (T47D; 72 h, 10% FBS): 39.8 ± 0.96 µM
O=C(Nc1cc(-c2ccc(Cl)cc2)[nH]n1)C1CCCCC1  remaining activity (PRKCZ (Homo sapiens, UniProt Q05513); enzyme activity, Dundee kinase panel; 10 µM): 73%
COc1cc(-c2nc3ccccc3c(=O)n2Nc2ccc([N+](=O)[O-])cc2[N+](=O)[O-])ccc1OCc1cn(CC(=O)NCc2ccccc2)nn1  inhibition (mushroom tyrosinase; enzyme activity; 40 µM, with: L-DOPA): 48.26 ± 0.31%
O=C(NCc1ccccc1)c1cn(Cc2ccc(C(F)(F)F)cc2)c2ccc(Oc3ccccc3)cc2c1=O  CC30 (MDA-MB-231-LM2-4; cytotoxicity; 48 h): 19.9 µM
Cc1ccc(N=Nc2c(N)nn3c(-c4ccco4)cc(-c4ccc(OCc5ccccc5)cc4)nc23)cc1  MBC/MIC ratio (Bacillus pumilus; broth microdilution; MTCC 2296): 8
COc1cc(-c2nc3ccccc3c(=O)n2Nc2ccc([N+](=O)[O-])cc2[N+](=O)[O-])ccc1OCc1cn(CC(=O)Nc2cccc(Cl)c2)nn1  IC50 (mushroom tyrosinase; inhibitor, colorimetric; with: L-DOPA substrate): 37.2 ± 1.89 µM
COc1ccc(N=Nc2c(N)nn3c(-c4ccco4)cc(-c4ccc(OCc5ccccc5)cc4)nc23)cc1  MBC/MIC ratio (Bacillus pumilus; broth microdilution; MTCC 2296): 4
O=C(NCc1ccc(O)cc1)c1cn(Cc2ccc(F)cc2)c2ccc(Oc3ccccc3)cc2c1=O  CC50 (MCF7; 72 h): 47.2 ± 3.17 µM
